Measurements gathered from unrelated publications.
Compare with care: the assays were run in different laboratories.

`CCN(c1nc(N[C@H](CC(N)=O)C(=O)NC)nc(N2CCN(c3ccccc3C#N)CC2)n1)C1CCCCC1` gave a Papp of 2.1 ×10⁻⁶ cm/s (PAMPA).
`C/C=C/CNC(=N)NCCCCCCCCN1CCCCCCOc2ccccc2CNC(=N)NC1=O` has a Papp of under 0.01 ×10⁻⁶ cm/s (PAMPA; 500 µM, 5 h, pH 7.4).
The Papp of `O=C(c1ccccc1)c1cc(O)c(-c2cc(Cl)cc(Cl)c2)c(O)c1` is reported as 9.55 ×10⁻⁶ cm/s (PAMPA; 18 h, pH 7.4).
With `C/C=C/CNC(=N)NCCCCCCCCN1CCCc2ccc(F)cc2COc2ccccc2CNC(=N)NC1=O` the Papp was under 0.01 ×10⁻⁶ cm/s (PAMPA; 500 µM, 5 h, pH 7.4).
For `O=C(NCc1ccc2c(c1)OCO2)c1ccnc(C(=O)NCc2ccc3c(c2)OCO3)c1`, the Papp was 0.3 ×10⁻⁶ cm/s (PAMPA).
With `[2H]c1c(NS(C)(=O)=O)c([2H])c2c(C(=O)c3ccc(OCCCN(CCCC)CCCC)cc3)c(CCCC)oc2c1[2H]` the Papp was 4.08 ×10⁻⁶ cm/s (PAMPA; 16 h, pH 7.4).
The Papp of `NS(=O)(=O)NCC(F)(F)c1ccccc1F` is reported as 50 ×10⁻⁶ cm/s (Caco-2).
With `CCOC(=O)c1cc2cc(-c3cc(C(=O)NCc4ccc(C(=O)O)cc4)nn3C)ccc2[nH]1` the Papp was 3.3 ×10⁻⁶ cm/s (PAMPA).
`CC(C)(O)c1ccc(N2Cc3c(ccnc3-c3ccc(F)cc3OCC(F)(F)F)C2=O)cc1` gave a Papp of 24.7 ×10⁻⁶ cm/s (PAMPA; pH 7.4).

For quick reference, copied from above:
With `CCOC(=O)c1cc2cc(-c3cc(C(=O)NCc4ccc(C(=O)O)cc4)nn3C)ccc2[nH]1` the Papp was 3.3 ×10⁻⁶ cm/s (PAMPA).
